# Measured values gathered from unrelated publications.
# Parts stem from different laboratories: compare values within a part only. Several values in a cell are separate wells, animals, samples, runs or records.
# UniProt P28223, sequence (whole entry, looked up): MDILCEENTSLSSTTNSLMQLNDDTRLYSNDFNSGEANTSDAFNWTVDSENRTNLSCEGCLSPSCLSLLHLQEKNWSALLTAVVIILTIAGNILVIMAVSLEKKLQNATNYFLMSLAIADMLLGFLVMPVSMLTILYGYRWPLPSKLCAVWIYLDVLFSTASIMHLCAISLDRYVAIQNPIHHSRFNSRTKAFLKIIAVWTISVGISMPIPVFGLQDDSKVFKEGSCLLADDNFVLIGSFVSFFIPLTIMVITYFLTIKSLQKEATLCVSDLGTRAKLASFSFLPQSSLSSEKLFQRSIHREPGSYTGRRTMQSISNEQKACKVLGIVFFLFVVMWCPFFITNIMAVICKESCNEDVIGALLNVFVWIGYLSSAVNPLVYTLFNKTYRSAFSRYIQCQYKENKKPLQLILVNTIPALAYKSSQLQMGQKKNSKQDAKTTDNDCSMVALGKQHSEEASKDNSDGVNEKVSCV
# UniProt P18089, sequence (whole entry, looked up): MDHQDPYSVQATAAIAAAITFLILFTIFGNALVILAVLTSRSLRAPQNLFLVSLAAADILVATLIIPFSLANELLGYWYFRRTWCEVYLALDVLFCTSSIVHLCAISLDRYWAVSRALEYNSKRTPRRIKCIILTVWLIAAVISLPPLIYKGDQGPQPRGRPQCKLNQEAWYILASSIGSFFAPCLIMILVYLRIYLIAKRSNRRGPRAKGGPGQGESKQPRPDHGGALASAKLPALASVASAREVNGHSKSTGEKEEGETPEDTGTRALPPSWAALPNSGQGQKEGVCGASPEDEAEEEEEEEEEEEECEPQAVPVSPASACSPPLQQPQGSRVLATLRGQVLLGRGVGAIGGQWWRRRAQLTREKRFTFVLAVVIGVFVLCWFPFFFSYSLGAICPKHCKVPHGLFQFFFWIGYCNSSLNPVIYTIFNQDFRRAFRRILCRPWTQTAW

# Study 1
# Cell line: HEK-293T-ACE2-TMPRSS2
# Method: cell count
# Tested at: concentration not given
Structure (SMILES),viability
COc1cccc(Cn2ncc3ccc(C(=O)N4CCCC4)cc32)c1,124%
CCc1ccc(C2CC(=O)Nc3[nH]nc(-c4cccs4)c32)o1 (stereo not drawn),73%
CN(Cc1cccc(C(=O)Nc2nccn2C)c1)C1Cc2ccccc2C1,90%

# Study 2
# Cell line: HEK-293T
# Observed: pseudovirus infection
# Method: FDA-approved drug library counter-screen
# Organism: VSV pseudotyped with VSV-G
# Tested at: 10 µM
# Time: 16 h
# Relative to: vehicle-treated
Structure (SMILES),GFP-positive cells [%]
CO[C@H]1/C=C/O[C@@]2(C)Oc3c(C)c(O)c4c(c3C2=O)C2=NC3(CCN(CC(C)C)CC3)NC2=C(NC(=O)/C(C)=C\C=C\[C@H](C)[C@H](O)[C@@H](C)[C@@H](O)[C@@H](C)[C@H](OC(C)=O)[C@@H]1C)C4=O,118
C[C@]1(O)CC[C@H]2[C@@H]3CCC4=CC(=O)CC[C@]4(C)[C@@]3(F)[C@@H](O)C[C@@]21C,104
CCC1(C)CC(=O)NC1=O (stereo not drawn),87.3

# Mixed results
SMILES,tested on,assay,setting,how to read,endpoint,result
CNC(=O)c1cc(C(=O)NC2CC2)cn(Cc2ccccc2)c1=O,"ADRA2B (Homo sapiens, UniProt P18089)","binding, radioligand binding",10 µM,,inhibition,5.2%
CO[C@@H]1[C@@H](OC(N)=O)[C@@H](O)[C@H](Oc2ccc3c(O)c(NC(=O)c4ccc(O)c(CC=C(C)C)c4)c(=O)oc3c2C)OC1(C)C,RPE-1 BRCA1-/- PARPi-resistant R1,clonogenic,"100 µM, 12 to 14 d",relative to: untreated,surviving fraction,4.01% and 6.17% and 4.17%
CC(=O)N1CCC(c2ccc(C(=O)NC(=N)N)cc2C(F)(F)F)CC1,"HTR2A (Homo sapiens, UniProt P28223)","binding, radioligand binding",,,Ki,> 10 µM

# Repeated from above (study 1):
Structure (SMILES),viability
CCc1ccc(C2CC(=O)Nc3[nH]nc(-c4cccs4)c32)o1 (stereo not drawn),73%
